Experimental data of several laboratories.
Numbered parts are unrelated; each lists some results of a single study. Changes are numbered by the printed parent chain.
UniProt P37173, sequence (whole entry, looked up): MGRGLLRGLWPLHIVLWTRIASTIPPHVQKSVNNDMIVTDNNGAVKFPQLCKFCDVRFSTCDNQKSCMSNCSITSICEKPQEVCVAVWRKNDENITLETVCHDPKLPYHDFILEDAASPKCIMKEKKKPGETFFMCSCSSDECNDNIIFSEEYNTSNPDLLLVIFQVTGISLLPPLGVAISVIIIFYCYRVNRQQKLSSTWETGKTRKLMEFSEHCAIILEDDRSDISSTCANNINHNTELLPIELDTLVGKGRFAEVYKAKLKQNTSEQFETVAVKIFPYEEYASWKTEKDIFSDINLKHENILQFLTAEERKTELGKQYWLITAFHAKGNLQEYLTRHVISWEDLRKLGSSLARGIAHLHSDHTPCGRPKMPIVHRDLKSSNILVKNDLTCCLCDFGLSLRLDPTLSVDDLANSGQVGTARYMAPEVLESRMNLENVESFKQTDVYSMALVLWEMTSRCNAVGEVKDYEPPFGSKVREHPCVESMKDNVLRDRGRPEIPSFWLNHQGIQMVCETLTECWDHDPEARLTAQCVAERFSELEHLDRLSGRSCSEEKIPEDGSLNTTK

Block 1
Target: Sal-like protein 4, full length isoform B (SALL4, Homo sapiens, UniProt Q9UJQ4-2, residues 1-616)
Technique: universal PBM
Molecule type: double-stranded DNA, one strand shown
Matrix: in vitro
Tested at: not given
Notes: 8-mer, flanks averaged, mean of replicates
Direction: higher = stronger binding
Target sequence (chain): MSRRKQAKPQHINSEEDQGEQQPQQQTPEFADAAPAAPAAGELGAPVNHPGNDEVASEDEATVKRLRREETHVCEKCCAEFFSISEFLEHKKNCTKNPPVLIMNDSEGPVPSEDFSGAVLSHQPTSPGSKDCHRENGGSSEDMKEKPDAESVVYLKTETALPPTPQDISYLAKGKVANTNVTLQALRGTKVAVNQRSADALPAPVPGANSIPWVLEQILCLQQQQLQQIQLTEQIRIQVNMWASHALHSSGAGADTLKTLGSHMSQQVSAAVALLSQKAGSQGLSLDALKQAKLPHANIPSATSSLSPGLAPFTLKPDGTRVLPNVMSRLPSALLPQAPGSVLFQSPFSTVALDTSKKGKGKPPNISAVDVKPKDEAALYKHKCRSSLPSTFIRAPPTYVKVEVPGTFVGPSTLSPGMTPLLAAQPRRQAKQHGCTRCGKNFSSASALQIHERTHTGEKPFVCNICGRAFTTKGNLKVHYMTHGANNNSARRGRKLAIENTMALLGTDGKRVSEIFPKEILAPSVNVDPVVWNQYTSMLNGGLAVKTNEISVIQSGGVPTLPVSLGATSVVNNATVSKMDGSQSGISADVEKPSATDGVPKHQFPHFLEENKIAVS
The E-score of `CGGTAGCC` is reported as -0.31.
`ACCTAAAC` gave an E-score of 0.0194.
`ACCGGGGA` has an E-score of -0.414.
For `ATGTGCTC`, the E-score was -0.00662.
For `AGCCAAAG`, the E-score was -0.0675.
`ATAGATTG` has an E-score of 0.219.
The E-score of `ATAAAGAA` is reported as 0.293.
The E-score of `ATCGTTGG` is reported as 0.197.

Block 2
Target: Prothrombin, mature alpha-thrombin (F2, Homo sapiens, UniProt P00734)
Technique: aptamer microarray, sandwich
Molecule type: DNA with 2'F-ANA
Matrix: in vitro
Tested at: 200 nM
Notes: whole 15-mer aptamer, many near background
Added: Cy3 exosite-II aptamer, 400 nM
Direction: higher = stronger binding
Oligonucleotide: GGTTGGTGTGGTTGG
Under “mean fluorescence intensity”, `2'F-ANA at 1 4 5 6 8 9 11 12 13 14 15` is recorded as 83.9 a.u.
`2'F-ANA at 1 4 5 9 10 11 13` — result for “mean fluorescence intensity”: 53.1 a.u.
`2'F-ANA at 1 2 9 14`: “mean fluorescence intensity” 51.9 a.u.
`2'F-ANA at 5 8 9 12 13`: “mean fluorescence intensity” 103 a.u.
For `2'F-ANA at 5 6 7 8 9 12 13 14 15`, “mean fluorescence intensity” read 47.2 a.u.
`2'F-ANA at 2 3 5 7 8 10 12 13 15` — result for “mean fluorescence intensity”: 55.4 a.u.
Under “mean fluorescence intensity”, `2'F-ANA at 1 3 4 5 6 7 13 14` is recorded as 55.1 a.u.
For `2'F-ANA at 3 6 8 11 14`, “mean fluorescence intensity” read 565 a.u.

Block 3
Target: HLF, bZIP domain (human)
Technique: DHFR protein complementation
Matrix: yeast
Notes: single substitutions, most at no-binding floor
Baseline: wild-type JUN-FOS pair
Direction: higher = stronger binding
Parent: JUN, bZIP domain (human); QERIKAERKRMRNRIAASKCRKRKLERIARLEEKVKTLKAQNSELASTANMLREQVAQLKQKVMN; partner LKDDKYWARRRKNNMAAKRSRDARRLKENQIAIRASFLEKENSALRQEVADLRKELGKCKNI
The binding fitness of `T48I` is reported as -1.44 natural log.
`K39Y` gave a binding fitness of -1.32 natural log.
The binding fitness of `A49S` is reported as -1.41 natural log.
The binding fitness of `A40I` is reported as -1.29 natural log.
`A40D` has a binding fitness of -1.06 natural log.
With `R53P` the binding fitness was -1.56 natural log.
`K34W` has a binding fitness of -1.11 natural log.
For `K39F`, the binding fitness was -1.46 natural log.

Mixed results
With `Cn1nc(C(F)(F)F)cc1-c1cnc(N2CCc3cc(S(=O)(=O)Nc4c(F)cc(Cl)cc4F)cc(N4CCCC4=O)c32)nc1` the remaining binding was 81% (TGF-beta receptor type-2 (TGFBR2, Homo sapiens, UniProt P37173); cell-free assay, competition with immobilised ligand; 1 µM).

Repeated from above (block 3):
The binding fitness of `A49S` is reported as -1.41 natural log.
The binding fitness of `A40I` is reported as -1.29 natural log.
